Published values from different studies.
A part holds a random share of what one study measured. Substitutions count along the parent as printed.

Study 1
Target: Protein max, full length (MAX, Homo sapiens, UniProt P61244-2, residues 1-151)
Method: protein-binding microarray
Form: double-stranded DNA, one strand shown
Sample: in vitro
Tested at: not given
Notes: k-mer, scored over probes, only values ≥0.25
Direction: higher = stronger binding
Quantity: E-score
GGCGTGCA: 0.376
CGTGACAC: 0.416
CAACACGC: 0.395
ATGTGCCG: 0.337
ACGCCCCG: 0.268
CACGTTGA: 0.453
CATGCTGC: 0.451

Study 2
Target: RING finger protein unkempt homolog, zinc fingers 1-6, GST-SBP tag (UNK, Homo sapiens, UniProt Q9C0B0, residues 30-357)
UniProt Q9C0B0, sequence (30-357, looked up): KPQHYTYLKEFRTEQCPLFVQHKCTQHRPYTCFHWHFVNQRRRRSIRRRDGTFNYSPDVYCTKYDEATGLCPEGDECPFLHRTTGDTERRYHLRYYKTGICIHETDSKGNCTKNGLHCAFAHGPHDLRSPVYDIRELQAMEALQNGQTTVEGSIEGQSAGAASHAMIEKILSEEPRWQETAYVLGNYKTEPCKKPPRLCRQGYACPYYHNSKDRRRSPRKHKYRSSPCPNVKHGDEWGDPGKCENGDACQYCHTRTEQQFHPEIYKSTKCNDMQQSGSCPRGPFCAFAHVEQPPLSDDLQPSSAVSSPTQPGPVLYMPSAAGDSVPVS
Method: RNA Bind-n-Seq
Form: RNA
Sample: in vitro
Tested at: not given
Notes: RNA with constant flanks, human-mouse chimeric sites, ends assumed
Baseline: input RNA pool
Direction: higher = stronger binding
Quantity: bound/input enrichment
Shared flanks, not repeated: GGGAGUUCUACAGUCCGACGAUC … CAACAGAGGAUUGAGCAUCA
GUAUACGGUUAUCGAGGAAAGGACUGUAGAGCGAAUGUAUACCUGCUUCCCACAGGGAAAAUAGUUUAUUUUAUCGCCUCAGUGGUAGUCCUGUUUAAUUAUGAGGAGAGAACUCAGCGA: 33.2 ratio
GGUGGGGGGUUGUCAUUCGUUUGAGCUGCUGAUUUUCAUGAGUCGCCUUCAAAACUCUCGCAUAGGGUUGACAAUGUGGGGGGGUGGGGGAUCCAGCUUAUUCUUUUAUUUUCAAGUCCA: 0.582 ratio
CUGGCCUUCUGAGCAUCAGGGGCCUCCUUUCGUAUAGUCACUGCUUCUGCAUCAGAUACUUUCAGCUGCAACUCCCUACUGGGUGGGGCACCCAUUUCAGGCAGAAGGUUUUGGUACCCU: 0.196 ratio
GAGCCCAGUCGGCAGUUUGUAAAGGACUCAAUUCGGCUGGUUAAAAGAUGCACCAAACCCGACAGAAAAGAAUUCCAGAAGAUUGCCAUGGCUACAGCUAUAGGAUUUGCUAUCAUGGGA: 0.288 ratio
GCUCCUCCCCGCUCUGCAGCCUGGGGACACUGGGCUGCAUUUUUUUUCCAGCUUUCUUUUAAAACUCUCAGUGUAACUGUAUCCCGUGACAUUUCAUUUUUUUUAAAUAGUGUAUUUUUU: 5.84 ratio
AUGGAGAAGGAUUCUCUGCCCCGCUUUGUGCGCUCUGAAUUUUAUAAGGAGCUAAUCAAGUAGUCAUCUGGUCAGGCUUCCAAAAGUUCCUGUGAGUUAUUUCCUCCAUCCUUUGUAGCA: 0.338 ratio
GCUCUUGGGAAUGUAAUCAGCGCCUUGGGGGACAAGAGCAAGAGAGCCACCCAUGUCCCUUACAGAGACUCUAAGCUGACAAGACUCUUGCAGGAUUCCCUCGGGGGUAAUAGCCAAACC: 0.129 ratio

Single results of other studies
P1: ITGB3BP docking peptide (human); MPVKRSLKLDGLL; partner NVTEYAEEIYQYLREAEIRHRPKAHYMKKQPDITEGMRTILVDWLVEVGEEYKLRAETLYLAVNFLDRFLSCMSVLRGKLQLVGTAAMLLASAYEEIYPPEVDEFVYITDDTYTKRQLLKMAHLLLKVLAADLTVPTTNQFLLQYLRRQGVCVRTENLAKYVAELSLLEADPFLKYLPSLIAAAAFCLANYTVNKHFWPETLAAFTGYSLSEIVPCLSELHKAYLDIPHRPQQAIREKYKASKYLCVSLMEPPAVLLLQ
P1 V3A — normalised enrichment score (CCNA1, cyclin fold, Cln2 fusion (human); yeast growth competition, sequencing; yeast; weak parent motif; baseline: not given, higher = stronger binding): 0.483
PhoQ, residues 284 288 289 292 302 303 QWQEDG — fold induction (PhoP, residues 12 14 15 18 19 NHFIF (Escherichia coli, UniProt P23836); Sort-seq, refers to: YFP reporter; E. coli; PhoQ-PhoP variant library, added: 10 µM Mg2+; baseline: high Mg2+ state, higher = stronger signaling): 6.29
GSPLKALFTSTGL — binding score (Saccharomyces cerevisiae; peptide binding, yeast competitive growth sequencing; peptide, cyclin F-Cln2 fusion; concentration not given, combined libraries, Cln2-subtracted; direction not given): 0.28

For quick reference, copied from above (study 2):
CUGGCCUUCUGAGCAUCAGGGGCCUCCUUUCGUAUAGUCACUGCUUCUGCAUCAGAUACUUUCAGCUGCAACUCCCUACUGGGUGGGGCACCCAUUUCAGGCAGAAGGUUUUGGUACCCU: 0.196 ratio
GGUGGGGGGUUGUCAUUCGUUUGAGCUGCUGAUUUUCAUGAGUCGCCUUCAAAACUCUCGCAUAGGGUUGACAAUGUGGGGGGGUGGGGGAUCCAGCUUAUUCUUUUAUUUUCAAGUCCA: 0.582 ratio
GUAUACGGUUAUCGAGGAAAGGACUGUAGAGCGAAUGUAUACCUGCUUCCCACAGGGAAAAUAGUUUAUUUUAUCGCCUCAGUGGUAGUCCUGUUUAAUUAUGAGGAGAGAACUCAGCGA: 33.2 ratio
